Measurements gathered from unrelated publications.
Protocols differ between the studies behind these lines. Several values in a cell are separate wells, animals, samples, runs or records. ± gives the spread as reported.

SMILES	assay	test system	conditions	clearance
CCOCC(=O)N1CCC[C@H](C(=O)NCc2nc(-c3ccc(C#N)nc3)cs2)C1		Sprague-Dawley rat, male, plasma	intravenous, 1 mg/kg	3.9 mL/min/kg
CCC(=O)O[C@]1(C(=O)SCF)[C@H](C)C[C@H]2[C@@H]3C[C@H](F)C4=CC(=O)C=C[C@]4(C)[C@@]3(F)[C@@H](O)C[C@@]21C	three-compartment model	rat, plasma	intravenous, 90 nmol/kg	183 ± 16.7 mL/min/kg
Cc1cc(-c2ccc3cc[nH]c(=O)c3c2)ccc1O[C@H]1O[C@H](CO)[C@@H](O)[C@H](O)[C@@H]1O		Sprague-Dawley rat, male, plasma	intravenous, 3 mg/kg	426 mL/min/kg and 331 mL/min/kg and 467 mL/min/kg
Cc1nc(-c2cnc(NC(C)C)n(C)c2=O)ccc1Oc1ccnc(-c2cnn(C)c2)c1		Sprague-Dawley rat, male, plasma	intravenous, 1 mg/kg	0.5 mL/min/kg
N=C(N)NCCNC(=O)C1(Nc2ccccc2)CCN(Cc2ccccc2)CC1		Sprague-Dawley rats (male), plasma	intravenous, 2.5 mg/kg	20 ± 5 mL/min
CCOCC(=O)N1CCC[C@H](C(=O)NCc2nc(-c3ccc(C)nc3)cs2)C1		Sprague-Dawley rat, male, plasma	intravenous, 1 mg/kg	2.6 mL/min/kg
N#Cc1ccc(Nc2nc(N)cc(Oc3c(F)cc(-c4ccc(C#N)cc4)cc3F)n2)cc1		Sprague-Dawley rat, plasma	intravenous, 1 mg/kg	54.6 ± 6.11 mL/min/kg
CCCC(CCC)NC(=O)c1ccc2c(c1)OCO2		Sprague-Dawley rat, male, plasma	intravenous, 1 mg/kg	30.7 mL/min/kg
COCC(=O)N1CCC[C@H](C(=O)NCc2nc(-c3ccccc3)cs2)C1		Sprague-Dawley rat, male, plasma	intravenous, 1 mg/kg	0.36 mL/min/kg
CNC(=O)c1cccc(-c2ccc([C@@H](O)[C@H]3O[C@H](CO)[C@@H](O)[C@H](O)[C@@H]3O)c(C)c2)c1		Sprague-Dawley rat, male, plasma	intravenous, 3 mg/kg	33.8 mL/min/kg and 34.2 mL/min/kg and 36.6 mL/min/kg
Cc1nccn1CC1CCc2c(c3ccccc3n2C)C1=O (centres unmarked)		male Sprague Dawley rat, plasma	iv bolus, 5 mg/kg, added: tariquidar 15 mg/kg iv	61.7 mL/min/kg
COc1cc2c3c(n(CCCN4CCOCC4)c(=O)c2cc1OC)-c1cc2c(cc1C3=O)OCO2		Fischer 344 rats, male	intravenous bolus, 12 mg/m^2	50.9 L/h/m²
Cc1cc(C(=O)NC(C)(C)COc2cccc3c2C(N)=NS(=O)(=O)N3)cc(C)n1		Sprague-Dawley rats, female, plasma	intravenous, 1 mg/kg	38.3 mL/min/kg
NCCOCC(=O)N1CCC[C@H](C(=O)NCc2nc(-c3ccc(C(F)(F)F)cc3)cs2)C1		Sprague-Dawley rat, male, plasma	intravenous, 1 mg/kg	18 mL/min/kg
N#C[C@@]12C[C@@H]1[C@@H](n1cnc3c(N[C@@H](C4CCC4)C4CC4)nc(I)nc31)[C@H](O)[C@@H]2O		Wistar rats male, plasma	oral, 1.0 mg/kg	867 mL/min/kg
Cc1ccc(S(=O)(=O)n2cc3c4c2C(=O)C(NCc2ccc(Cl)cc2)=CC4=NCC3)cc1		Sprague-Dawley rat, plasma	intravenous, 5 mg/kg, two-compartment model	0.05 mL/min/kg and 0.0333 mL/min/kg
Cc1cccc(CNC(=O)c2cn(CCNC(=O)c3ccccc3Sc3c([N+](=O)[O-])ncn3C)c3cc4c(cc3c2=O)OC(F)(F)O4)n1		Sprague-Dawley rat, male, plasma	intravenous, 5 mg/kg	252 ± 6.52 mL/min/kg

Excerpt of the above:
SMILES	assay	test system	conditions	clearance
COc1cc2c3c(n(CCCN4CCOCC4)c(=O)c2cc1OC)-c1cc2c(cc1C3=O)OCO2		Fischer 344 rats, male	intravenous bolus, 12 mg/m^2	50.9 L/h/m²
